Measured values pooled from the literature.
Numbered parts are unrelated; each lists some results of a single study.

Sample 1 — method: protein-binding microarray; form: double-stranded DNA, one strand shown; medium: in vitro; tested at: 250 nM; notes: 60-bp whole probe; together with: salmon DNA 0.4 mg/ml; relative to: random background probes; reading: higher = stronger binding; constant ends, left off below: GCCTAGCAC … GTCTTGATTCGCTTGACGCTGCTG
Target: Interferon regulatory factor 5, full length, phosphomimetic (IRF5, Homo sapiens, UniProt Q13568-2, residues 1-514, K96S/S451D/S453D/S456D/S462D)
`TTAGGACTGCCTCTCCTTTAGTGCTAG` gave a log fluorescence of -0.403 z-score.
With `GACGGTATCGGTACTGGGGACGTGCTA` the log fluorescence was 4.49 z-score.
`TTAGCTTTCAGTTCCGATTAGTGCTAG` gave a log fluorescence of 6.35 z-score.
`CTGCCTCACATTGCTAAGACGTGCTAG` gave a log fluorescence of -0.219 z-score.
For `TTAGGCTTCCTTCTCCTTTAGTGCTAG`, the log fluorescence was -0.19 z-score.
With `TTAGGACTGGACACTGGATTAGTGCTA` the log fluorescence was -0.353 z-score.
`GACGATCTCAGTATCGAGACGTGCTAG` gave a log fluorescence of 1.69 z-score.
The log fluorescence of `TCATCTCTGCTTGTATCACTGTGCTAG` is reported as 1.07 z-score.
`AAACAAGTTTCACGTCTTATAGTGCTA` has a log fluorescence of 2.05 z-score.
`GACGGTCTCGGATTGGGGACGTGCTAG` has a log fluorescence of -0.283 z-score.
The log fluorescence of `GACAGTTTCGGTTTCGGGACGTGCTAG` is reported as 11.5 z-score.
With `TTTTGAAGTTTGGCGTTGACGTGCTAG` the log fluorescence was 0.353 z-score.
For `CTCATTCTCTGCTTCTGTATGTGCTAG`, the log fluorescence was 0.733 z-score.
`CATCATTGCCTATTTTTCACCGTGCTA` gave a log fluorescence of 0.806 z-score.
For `CTAGGTATCGGTTTCGGTTAGTGCTAG`, the log fluorescence was 11 z-score.
`GACGGTATCTACTTTCGGGACGTGCTA` has a log fluorescence of 7 z-score.
`TTAGGTATCGGAATGGGTTAGTGCTAG` has a log fluorescence of 2.74 z-score.
`GACGGTCTCCTTCTCCTGTCGTGCTAG` has a log fluorescence of 0.197 z-score.

Sample 2 — method: universal PBM; form: double-stranded DNA, one strand shown; medium: in vitro; tested at: 600 nM; reading: higher = stronger binding
Target: Sal-like protein 4, full length isoform A (SALL4, Homo sapiens, UniProt Q9UJQ4, residues 1-1053)
Sequence of UniProt Q9UJQ4 (whole entry, looked up): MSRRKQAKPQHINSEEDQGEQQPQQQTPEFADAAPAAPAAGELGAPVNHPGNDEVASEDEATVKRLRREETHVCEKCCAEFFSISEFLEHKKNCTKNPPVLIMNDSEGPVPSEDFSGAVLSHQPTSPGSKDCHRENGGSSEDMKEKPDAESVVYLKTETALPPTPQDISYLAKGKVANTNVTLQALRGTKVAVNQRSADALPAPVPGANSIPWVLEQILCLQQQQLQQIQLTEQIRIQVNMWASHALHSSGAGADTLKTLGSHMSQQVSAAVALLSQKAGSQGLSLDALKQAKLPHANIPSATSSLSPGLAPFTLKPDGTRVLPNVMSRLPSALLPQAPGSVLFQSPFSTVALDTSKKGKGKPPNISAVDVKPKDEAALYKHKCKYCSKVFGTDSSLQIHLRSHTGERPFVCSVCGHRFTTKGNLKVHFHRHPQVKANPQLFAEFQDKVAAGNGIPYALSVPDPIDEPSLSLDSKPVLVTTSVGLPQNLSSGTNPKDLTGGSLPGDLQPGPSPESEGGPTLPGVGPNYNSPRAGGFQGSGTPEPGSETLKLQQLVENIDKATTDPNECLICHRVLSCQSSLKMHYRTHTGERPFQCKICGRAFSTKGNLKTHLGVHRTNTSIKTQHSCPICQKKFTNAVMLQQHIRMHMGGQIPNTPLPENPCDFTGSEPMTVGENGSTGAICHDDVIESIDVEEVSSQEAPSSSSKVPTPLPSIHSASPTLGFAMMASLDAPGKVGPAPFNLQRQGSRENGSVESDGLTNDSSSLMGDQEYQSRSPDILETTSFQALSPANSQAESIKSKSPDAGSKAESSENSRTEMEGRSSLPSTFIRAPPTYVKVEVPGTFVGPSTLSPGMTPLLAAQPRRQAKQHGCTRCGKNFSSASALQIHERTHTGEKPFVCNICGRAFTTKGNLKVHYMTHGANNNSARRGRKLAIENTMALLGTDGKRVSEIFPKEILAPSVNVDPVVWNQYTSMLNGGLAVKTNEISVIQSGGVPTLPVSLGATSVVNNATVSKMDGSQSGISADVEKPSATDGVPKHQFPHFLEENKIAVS
Notes: 8-mer, flanks averaged, mean of replicates
`CGATGCCC` has an E-score of -0.335.
`ACTGAGGC` has an E-score of -0.0689.
With `AGAGTAAT` the E-score was 0.263.
For `CTTGATTC`, the E-score was 0.0903.
The E-score of `AATTCGCT` is reported as 0.166.
For `AACTATTC`, the E-score was 0.15.
With `GCAACCAC` the E-score was -0.176.
`GAATTCCC` has an E-score of -0.00873.
The E-score of `CGCACGAA` is reported as -0.0443.
With `AACATCCT` the E-score was -0.0105.
`AGACTTAG` has an E-score of -0.0481.
The E-score of `ACATACCT` is reported as 0.134.
The E-score of `ACGCCCAC` is reported as -0.198.
The E-score of `AAGAGAAT` is reported as 0.107.
With `CTGATAAC` the E-score was 0.156.
The E-score of `GAGCGCCA` is reported as -0.288.
With `CAACACCA` the E-score was -0.0317.
`CAGCAATG` gave an E-score of 0.0202.

Sample 3 — method: RNA Bind-n-Seq; form: RNA; medium: in vitro; tested at: 365 nM; relative to: no-protein control; reading: higher = stronger binding
Target: RNA binding protein fox-1 homolog 2, RRM domain, GST-SBP tag (RBFOX2, Homo sapiens, UniProt O43251-10, residues 100-194)
Notes: natural RNA segment, single round, ends assumed
Residues (chain): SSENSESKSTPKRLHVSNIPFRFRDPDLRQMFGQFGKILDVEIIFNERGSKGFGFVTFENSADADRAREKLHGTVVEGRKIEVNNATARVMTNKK
`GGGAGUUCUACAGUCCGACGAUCUGACUCAGAGCUUCACCCACAAACUCAGGAGAACAUAAGCCUGCUCGUAAAGCUCAAUCCUUCUAUCAUGGCACCAAUCACAAGAACCUUGGACGUUUGACUGACUCUAUUGGAAUUCUCGGGUGCCAA` — result for “RBNS enrichment (R)”: 0.651.
`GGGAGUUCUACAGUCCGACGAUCUUGUCAAUGCAGUGUGAAUGUUCUACAUAAAGUGCUUUAACCCUUAACAUUUCCUGGUCAGGAAGGAAAAUCAGUACCUGGACGGGCCUCGAAAAUGACAAAUGCAACAGUGGAAUUCUCGGGUGCCAA` — result for “RBNS enrichment (R)”: 0.689.
Under “RBNS enrichment (R)”, `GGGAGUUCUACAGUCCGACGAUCUAAGAAUAAGCCUAUGGUCAUGGGCAAGAAGGGCCAACAUAGACACUUGGGUAGAAAUACAGUCUGAUCAAGCAACGGUGUAAGGAAAAGUCCCUAAUUCACAACCUCCUUGGAAUUCUCGGGUGCCAA` is recorded as 0.433.
Under “RBNS enrichment (R)”, `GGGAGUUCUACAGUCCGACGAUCGGUGAUGGGUAAGAUUUUUGAAAGCCUUAUAUUUUUUGAUUUUGUUGUCUAGUUUAAUCCUACCUUUAAUAGUUGUGUUUGGUAAAAUUCCCACUUGAAUGUGACACUGAUGGAAUUCUCGGGUGCCAA` is recorded as 2.57.
`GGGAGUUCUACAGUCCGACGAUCGCUCUCCUCCCAGCAUCACACCAGCCAUGCAGCCAGCAGGUCCUCCGGAUCACUGUGGUUGGGUGGAGGUCUGUCUGCACUGGGAGCCUCAGGAGGGCUCUGCUCCACCCUGGAAUUCUCGGGUGCCAA` — result for “RBNS enrichment (R)”: 0.279.
Under “RBNS enrichment (R)”, `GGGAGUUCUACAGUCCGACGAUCCUUGGCUUACUACAACCUCCGCCUCCUGGGUUCAAGCGAUCCUCCUGCCUCAGCCCCCCACUAGCUGGGACUACAGGCACAUGCCACCAUGCCCGGCUAAUUUUUUUGUAUGGAAUUCUCGGGUGCCAA` is recorded as 0.589.
`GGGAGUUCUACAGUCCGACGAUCUAGACAGUGUUUGAUUAUUUUCCUUGUGUAAGUUUGAUUUAAAACGUUGGAAAUGUGUGCUUUUUAGUGUUUACUAAAGUGAUAAGAAAAUAAAGCAUUCAAUACACUAUUGGAAUUCUCGGGUGCCAA` — result for “RBNS enrichment (R)”: 0.791.
Under “RBNS enrichment (R)”, `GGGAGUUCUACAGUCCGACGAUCCAAGCAUGCUCAGUGCCUUUUGGUUUCCCCUCCUUCCCCUAGAUUCAGUUUUGCUCCCUCUGGGUUUUUAUAAGAUUUGCCAUGACAUUUCAUCUGGGUGGUCCAGAUAGUGGAAUUCUCGGGUGCCAA` is recorded as 4.31.

Sample 4 — method: RNA Bind-n-Seq; form: RNA; medium: in vitro; tested at: 200 nM; notes: whole 134-nt RNA, ends assumed; together with: 150 mM LiCl; relative to: input library; reading: higher = stronger binding; library: 7-deaza-guanosine replaces G
Target: Ras GTPase-activating protein-binding protein 1, full length (G3BP1, Homo sapiens, UniProt Q13283)
Sequence of UniProt Q13283 (whole entry, looked up): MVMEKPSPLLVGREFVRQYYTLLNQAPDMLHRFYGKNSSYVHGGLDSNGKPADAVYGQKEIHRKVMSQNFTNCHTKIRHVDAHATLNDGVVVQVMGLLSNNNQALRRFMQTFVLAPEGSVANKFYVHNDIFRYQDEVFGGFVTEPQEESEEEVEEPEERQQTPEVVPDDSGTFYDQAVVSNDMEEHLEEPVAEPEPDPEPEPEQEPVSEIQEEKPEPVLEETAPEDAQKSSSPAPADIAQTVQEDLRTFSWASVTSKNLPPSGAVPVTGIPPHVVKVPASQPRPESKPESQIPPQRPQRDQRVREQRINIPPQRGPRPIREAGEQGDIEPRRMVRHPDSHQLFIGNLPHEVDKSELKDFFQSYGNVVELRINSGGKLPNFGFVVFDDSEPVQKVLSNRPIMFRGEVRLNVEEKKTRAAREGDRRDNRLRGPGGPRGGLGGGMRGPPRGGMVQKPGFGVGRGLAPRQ
The log2 enrichment of `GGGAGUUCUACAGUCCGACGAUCCACAGACAACACGCACCCACACCGACACAGAGGGAAGGGGUUGGGAUGGGGACAGGGUGCACAGCAGGGCGGGGUAGGACCCCAGCCCCUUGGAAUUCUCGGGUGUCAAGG` is reported as -0.283.
For `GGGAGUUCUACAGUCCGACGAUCACCAUGCAGGUGGGCAUCUUUGGGAAGUGGGGCUAGGGGGGGAUAGGGAGGGGGGUAACACUUUGGGAACAGGUGGUCCCAGGUCGUUUCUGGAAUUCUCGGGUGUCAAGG`, the log2 enrichment was 0.112.
With `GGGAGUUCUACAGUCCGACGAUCCACAGACAACACGCACCCACACAGACACAGAGGGAAGGGGUUGGGAUGGGGACAGGAAACACAGCAGGGCGGGGUAGGACCCCAGCCCCUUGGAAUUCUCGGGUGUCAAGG` the log2 enrichment was -0.242.
`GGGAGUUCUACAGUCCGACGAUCCCUGUGCUACACAUCGUAUGUACCGAAUCGGCCCCCCCGGGCCCCCCCGGGGCCCCCCCGGAAAGUAUUAUGUUACGCCGUUCGGAUCUGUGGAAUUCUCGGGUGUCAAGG` has a log2 enrichment of 0.0765.
`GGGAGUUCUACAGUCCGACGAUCGUCCUGUGCUACACAUCGUAUGUACCGAAUCGGGAAAGGGUUUUUUUGGGUUUUUGGGAAAGUAUUAUGUUACGCCGUUCGGAUCUGCACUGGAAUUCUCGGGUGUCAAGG` has a log2 enrichment of -1.79.
`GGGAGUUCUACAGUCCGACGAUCUGGCCCUUCCCCUGGAGCCAUGCUGGGCCCUAGCCCGGGUCCCUCGCCGGGCUCCGCCCACAGCAUGAUGGGGCCCAGCCCAGGGCCGCCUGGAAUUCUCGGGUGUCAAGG` gave a log2 enrichment of 1.33.
The log2 enrichment of `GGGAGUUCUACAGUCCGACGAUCCCUGUGCUACACAUCGUAUGUACCGAAUCGGGGAAAGGGGAAAAAAAGGGGAAAAAGGGGAAAGUAUUAUGUUACGCCGUUCGGAUCUGCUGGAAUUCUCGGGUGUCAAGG` is reported as 0.943.
`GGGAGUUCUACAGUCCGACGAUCUGGGAGGUGGAUUUUGUUUAUUUUUUUAGCUCAUUUCCAGGGGUGCGAAUUUUUUUUUAAUAUGUGUCAUGAAUAAAGUUGUUUUUGAAAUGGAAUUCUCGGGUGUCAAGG` gave a log2 enrichment of -0.906.

Some of these lines once more (sample 1):
With `GACGGTATCGGTACTGGGGACGTGCTA` the log fluorescence was 4.49 z-score.
`TTAGCTTTCAGTTCCGATTAGTGCTAG` gave a log fluorescence of 6.35 z-score.
`CTGCCTCACATTGCTAAGACGTGCTAG` gave a log fluorescence of -0.219 z-score.
For `TTAGGCTTCCTTCTCCTTTAGTGCTAG`, the log fluorescence was -0.19 z-score.
With `TTAGGACTGGACACTGGATTAGTGCTA` the log fluorescence was -0.353 z-score.
`GACGATCTCAGTATCGAGACGTGCTAG` gave a log fluorescence of 1.69 z-score.
The log fluorescence of `TCATCTCTGCTTGTATCACTGTGCTAG` is reported as 1.07 z-score.
`AAACAAGTTTCACGTCTTATAGTGCTA` has a log fluorescence of 2.05 z-score.
